Experimental data from different studies.
Each numbered part is a random draw from the data of one study; scales do not carry over between parts. Substitutions count along the parent as printed.

Sample 1 — target: vanadate, free oxyanion; method: microfluidic competitive inhibition; medium: in vitro, cell-free expressed; tested at: not given; direction: lower = stronger binding
Setting: derived from inhibition constants, unchanged parent 676 nM
Parent: PafA, mature enzyme, eGFP fusion (Elizabethkingia meningoseptica, UniProt Q9KJX5); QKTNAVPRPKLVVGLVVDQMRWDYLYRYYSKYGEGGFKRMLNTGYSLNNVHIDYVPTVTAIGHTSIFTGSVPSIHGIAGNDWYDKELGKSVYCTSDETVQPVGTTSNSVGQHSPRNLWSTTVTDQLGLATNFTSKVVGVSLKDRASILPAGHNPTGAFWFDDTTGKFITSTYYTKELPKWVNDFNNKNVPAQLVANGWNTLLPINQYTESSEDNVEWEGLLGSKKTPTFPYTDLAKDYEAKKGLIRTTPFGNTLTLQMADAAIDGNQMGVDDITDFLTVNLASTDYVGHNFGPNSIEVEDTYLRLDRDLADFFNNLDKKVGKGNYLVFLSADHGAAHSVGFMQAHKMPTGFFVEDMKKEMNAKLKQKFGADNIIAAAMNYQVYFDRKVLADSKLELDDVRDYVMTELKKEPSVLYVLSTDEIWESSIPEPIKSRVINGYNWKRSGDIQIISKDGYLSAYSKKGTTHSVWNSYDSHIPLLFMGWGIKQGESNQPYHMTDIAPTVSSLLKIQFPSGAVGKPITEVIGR
Variant	oxyanion analog dissociation constant [µM]
D81V	1.38
V327G	0.477
K10V	0.679
D84V	0.874

Sample 2 — observed: binding; method: phage display NGS; form: peptide; tested at: concentration not given; relative to: input library
Target: UDP-N-acetylglucosamine--peptide N-acetylglucosaminyltransferase 110 kDa subunit (OGT, Homo sapiens, UniProt O15294)
Sequence of UniProt O15294 (whole entry, looked up): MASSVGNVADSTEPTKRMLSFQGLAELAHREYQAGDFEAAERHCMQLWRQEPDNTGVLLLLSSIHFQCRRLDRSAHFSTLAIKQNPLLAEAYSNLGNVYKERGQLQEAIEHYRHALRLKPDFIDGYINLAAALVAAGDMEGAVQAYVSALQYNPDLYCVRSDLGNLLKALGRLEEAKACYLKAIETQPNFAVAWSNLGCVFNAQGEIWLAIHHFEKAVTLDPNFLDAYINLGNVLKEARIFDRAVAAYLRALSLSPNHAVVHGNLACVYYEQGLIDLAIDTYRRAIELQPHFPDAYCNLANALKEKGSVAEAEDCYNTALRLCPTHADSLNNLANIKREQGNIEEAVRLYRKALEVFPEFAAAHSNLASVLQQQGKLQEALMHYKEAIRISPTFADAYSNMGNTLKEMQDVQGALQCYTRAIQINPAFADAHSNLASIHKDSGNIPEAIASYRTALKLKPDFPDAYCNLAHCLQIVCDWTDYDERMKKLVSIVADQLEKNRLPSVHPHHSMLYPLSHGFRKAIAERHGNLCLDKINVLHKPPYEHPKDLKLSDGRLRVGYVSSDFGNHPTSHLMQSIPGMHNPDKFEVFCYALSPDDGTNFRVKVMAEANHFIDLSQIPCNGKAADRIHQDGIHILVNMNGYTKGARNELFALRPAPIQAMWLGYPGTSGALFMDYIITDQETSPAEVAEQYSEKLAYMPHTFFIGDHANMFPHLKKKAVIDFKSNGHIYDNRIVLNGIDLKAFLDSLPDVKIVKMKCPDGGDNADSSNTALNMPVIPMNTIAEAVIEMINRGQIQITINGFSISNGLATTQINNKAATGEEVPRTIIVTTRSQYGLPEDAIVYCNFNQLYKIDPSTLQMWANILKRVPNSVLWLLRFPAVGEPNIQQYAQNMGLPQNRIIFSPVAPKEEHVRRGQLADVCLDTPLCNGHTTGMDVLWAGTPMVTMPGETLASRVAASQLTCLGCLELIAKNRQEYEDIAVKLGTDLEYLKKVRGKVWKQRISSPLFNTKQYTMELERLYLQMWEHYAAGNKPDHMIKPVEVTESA
Molecule	enrichment fold change
HQSPHHRTVEHQVT	5
HQLQIHHRSHLNDYP	5.04
HEPKHAEMESYYNIH	2.6
GGGHVMHHYYDKHNP	2.47
QFLHNHSDEKSHPHY	4.93

Sample 3 — target: CCNB2, cyclin fold, Cln2 fusion (human); method: yeast growth competition, sequencing; medium: yeast; setting: weak parent motif; relative to: not given; direction: higher = stronger binding; parent: viral docking peptide; PTARRRLLHDLDT
Variant	normalised enrichment score
PAARRRLLHDLDT [T2A]	0.203
PTARRRLLFDLDT [H9F]	0.49
ATARRRLLHDLDT [P1A]	0.614
PTARRRLLADLDT [H9A]	0.732
PTARRALLHDLDT [R6A]	0.59
PTARRRALHDLDT [L7A]	-0.0728
PTARKRLLFDLDT [R5K H9F]	0.525
PTARRRLFHDLDT [L8F]	0.508
PTARRRLLHALDT [D10A]	0.416

Mixed results — method: cross-linking MS
Molecule	partner	medium	setting	together with	measurement	result
YLPM1 (Homo sapiens, UniProt P49750)	PABPC4 (Homo sapiens, UniProt Q13310)	cell fractions	–	DHSO	cross-linked residues	D1887 to E200
BMS1 (Homo sapiens, UniProt Q14692)	NAT10 (Homo sapiens, UniProt Q9H0A0)	–	hits only	–	interaction screen	cross-linked
PDCD5 (Homo sapiens, UniProt O14737)	CCT4 (Homo sapiens, UniProt P50991)	cell fractions	–	DSSO	cross-linked residues	K110 to K79
NDUFB3 (Homo sapiens, UniProt O43676)	PARP1 (Homo sapiens, UniProt P09874)	cell fractions	–	DSSO	cross-linked residues	K39 to K262

Some of these lines once more (sample 3):
Variant	normalised enrichment score
PAARRRLLHDLDT [T2A]	0.203
PTARRRLLFDLDT [H9F]	0.49
ATARRRLLHDLDT [P1A]	0.614
